Results of several laboratories.
Each numbered part is a random draw from the data of one study; scales do not carry over between parts. Positions count from the first letter of the parent shown.

Series 1 — method: protein-binding microarray; molecule type: double-stranded DNA, one strand shown; matrix: in vitro; tested at: 940 nM top; notes: 60-bp whole probe; with: salmon DNA 0.4 mg/ml; baseline: random background probes; reading: higher = stronger binding; measurement: fitted relative affinity; shared flanks, not repeated: GCCTAGCAC … GTCTTGATTCGCTTGACGCTGCTG
Target: Interferon regulatory factor 5, full length, phosphomimetic (IRF5, Homo sapiens, UniProt Q13568-2, residues 1-514, S451D/S453D/S456D/S462D)
Strand = TTAGGAATCCTTATCCTTTAGTGCTAG; result = 0.177 z-score
Strand = TGAGCATACCATATCAGAAAGTGCTAG; result = -0.0464 z-score
Strand = TTAGGACGGCTACTGCTTTAGTGCTAG; result = -0.772 z-score
Strand = TCACCTGTACATCTATGACTGTGCTAG; result = 0.477 z-score
Strand = GACGGATTCGGTCTCGGGACGTGCTAG; result = 1.44 z-score
Strand = ACCAAAATCAAGTCTGGGCTAGTGCTA; result = -0.614 z-score
Strand = TTAGGTATCCTACTGCGTTAGTGCTAG; result = -0.157 z-score
Strand = TAAGGACTGGGTTTCGGTTAGTGCTAG; result = 6.75 z-score
Strand = GACGCACTGAGTATCGAGACGTGCTAG; result = 1.73 z-score
Strand = TTAGGGATCCTTCTCCTTTAGTGCTAG; result = -0.273 z-score
Strand = GACGGACTGGGGACTGGGGATGTGCTA; result = -0.195 z-score
Strand = GACGATGTCAGTCTCGAGACGTGCTAG; result = 0.596 z-score
Strand = TCACTTTCCTTTATGTCACTGTGCTAG; result = 2.03 z-score

Series 2 — method: RNA Bind-n-Seq; molecule type: RNA; matrix: in vitro; tested at: not given; baseline: input RNA pool; reading: higher = stronger binding; measurement: bound/input enrichment
Target: RING finger protein unkempt homolog, zinc fingers 1-6, GST-SBP tag (UNK, Homo sapiens, UniProt Q9C0B0, residues 30-357)
Sequence of UniProt Q9C0B0 (30-357, looked up): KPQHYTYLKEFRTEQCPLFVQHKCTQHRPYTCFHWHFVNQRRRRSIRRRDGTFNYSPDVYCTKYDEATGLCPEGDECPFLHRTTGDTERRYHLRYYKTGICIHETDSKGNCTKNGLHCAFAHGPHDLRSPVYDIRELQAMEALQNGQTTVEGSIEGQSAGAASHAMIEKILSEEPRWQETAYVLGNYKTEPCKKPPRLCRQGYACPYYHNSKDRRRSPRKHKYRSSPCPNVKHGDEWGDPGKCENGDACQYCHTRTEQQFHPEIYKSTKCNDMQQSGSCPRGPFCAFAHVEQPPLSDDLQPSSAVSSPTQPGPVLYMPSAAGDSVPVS
Notes: RNA with constant flanks, human and mouse sites, ends assumed
Strand = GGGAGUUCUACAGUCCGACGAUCAAGGACCCUGAAGGUUGUGACAAAAGUGAUGACAAAAACACUGUAAACCUCUUUGGGAAAGUUAUUGAAACCACAGAGCAAGAUCAGGAGCCCAGCGAGGCCACCGUUGGGAAUGGUGAGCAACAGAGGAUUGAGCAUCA; result = 0.32 ratio
Strand = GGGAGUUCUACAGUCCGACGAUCGUGAAAUACGCGUACUACGACACUGAACGCAUCGGAGUUGACCUGAUCAUGAAGACCUGCUUUAGCCCCAACAGAGUGAUUGGACUCUCAAGUGACUUGCAGCAAGUAGGAGGGGCAUCACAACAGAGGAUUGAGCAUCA; result = 0.109 ratio
Strand = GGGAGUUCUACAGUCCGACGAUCAAGGGUCACCCUUGAGGACAAACCUCUGUGCAGGACCUUGGCCAGAGUGGGGAGGGUGGCCAGCCACUCUGAGGGACAGAACGUCCUCUUGUGUAUAAUAAACCUUUAAUUUUGGUGUUGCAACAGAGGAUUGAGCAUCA; result = 0.46 ratio
Strand = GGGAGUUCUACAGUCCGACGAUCUACCUGCUGCUGCAGACCUACGUGCUCCGCCUAGAAGCUAUCAUGAACAGUAUCUUGCUCUUCUUUUGUGGCUCAGAGCUGCUGCUUGAGAUGCUCACGCUGGCCACCUUCUCCAGCAUGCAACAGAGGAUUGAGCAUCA; result = 1.56 ratio
Strand = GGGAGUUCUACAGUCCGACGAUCCAGCAUGUCAUAGAAACCUUGAUUGGCAAAAAGCAGCAGAUCUCUCUUGCCACCCAGAUGGUUAGGAUGAUUCUGAAGAUUGAUGACAUCCGUAAGCCUGGAGAAUCUGAAGAAUAAACUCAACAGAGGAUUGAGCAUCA; result = 0.292 ratio
Strand = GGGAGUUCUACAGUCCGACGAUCCAAAAGCAGCUGGACUCAUCCAAUAGCACCAUCGCCAUCCUGCAAACCGAGAAAGACAAGCUGGACUUGGAAGUUACGGAUUCUAAGAAAGAACAAGAUGACCUUUUGGUGCUGUUAGCACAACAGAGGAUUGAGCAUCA; result = 0.223 ratio
Strand = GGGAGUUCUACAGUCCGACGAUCUGAUGAGUAUUUACAUUAUGAAUGUAUAACCCAGACAUGAUUUGUAAAGCCGACAGUAUGUUUCUAUUACACAACACUUUUUGAUACAGCGUCUCUUGUCUUCACUGAUACUGGAGUCUCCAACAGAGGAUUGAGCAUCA; result = 0.22 ratio
Strand = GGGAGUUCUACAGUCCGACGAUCGUUCAACGUCCUCGAUGUUUUUUUGACAUUGCCAUUAACAAUCAACCUGCUGGAAGAGUUGUCUUUGAAUUAUUUUCUGAUGUGUGCCCCAAAACAUGCGAGAACUUUCGUUGUCUUUGUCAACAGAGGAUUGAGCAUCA; result = 0.188 ratio

Series 3 — target: CCND1, cyclin fold, Cln2 fusion (human); method: yeast growth competition, sequencing; matrix: yeast; notes: strong parent motif; baseline: not given; reading: higher = stronger binding; measurement: normalised enrichment score
Starting sequence: SCAPER docking peptide (human); SNARRSLNFGGST; partner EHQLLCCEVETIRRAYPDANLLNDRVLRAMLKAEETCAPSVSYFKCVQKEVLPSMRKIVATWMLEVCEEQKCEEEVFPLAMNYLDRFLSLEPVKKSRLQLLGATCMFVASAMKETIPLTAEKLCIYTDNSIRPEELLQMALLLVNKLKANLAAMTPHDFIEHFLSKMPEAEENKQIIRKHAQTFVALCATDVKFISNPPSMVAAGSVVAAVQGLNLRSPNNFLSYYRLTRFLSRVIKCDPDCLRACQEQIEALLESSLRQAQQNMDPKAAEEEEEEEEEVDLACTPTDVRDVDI
Change = HNARRSLNFGGST [S1H]; result = 0.153
Change = SDARRSLNFGGST [N2D]; result = 0.333
Change = SNARRSLIFGGST [N8I]; result = 1.11
Change = SNARRSLEFGGST [N8E]; result = 0.949
Change = SNARRSLNFGGSW [T13W]; result = 0.414
Change = GNARRSLNFGGST [S1G]; result = 0.413
Change = SNARRSLNQGGST [F9Q]; result = 0.0285
Change = SNARRFLNFGGST [S6F]; result = 1.33
Change = SNAKRSLNFGGST [R4K]; result = 0.745
Change = SNARRSLNFGGHT [S12H]; result = 1.45
Change = SNARRSLNFGVST [G11V]; result = 1.41
Change = SNARRSLNFGGSR [T13R]; result = 0.698
Change = SNARRSLNGGGST [F9G]; result = -0.257
Change = SNARRSLNFPGST [G10P]; result = 0.57
Change = SNARRSLNFGPST [G11P]; result = 0.724
Change = SNARRSLNFIGST [G10I]; result = 0.463
Change = SNARRSLNFGMST [G11M]; result = 0.294
Change = KNARRSLNFGGST [S1K]; result = 0.469
Change = SNARRSLNFGIST [G11I]; result = 0.943

Other studies, line by line
Substance = PhoQ, residues 284 288 289 292 302 303 NLGVHL; target = PhoP, residues 12 14 15 18 19 QWHVF (Escherichia coli, UniProt P23836); test = Sort-seq, item: YFP reporter; system = E. coli; setting = PhoQ-PhoP variant library, with: 10 µM Mg2+; how to read = baseline: high Mg2+ state, higher = stronger signaling; measurement = fold induction; result = 9.13
